Measurements pooled from the literature.
Every numbered part comes from another study and shows a few of its results, in no order.

Sample 1
Target: RNA binding protein fox-1 homolog 2, RRM domain, GST-SBP tag (RBFOX2, Homo sapiens, UniProt O43251-10, residues 100-194)
Technique: RNA Bind-n-Seq
Form: RNA
Medium: in vitro
Tested at: 365 nM
Notes: natural RNA segment, single round, ends assumed
Relative to: no-protein control
Reading: higher = stronger binding
Endpoint: RBNS enrichment (R)
Constant ends, left off below: GGGAGUUCUACAGUCCGACGAUC … UGGAAUUCUCGGGUGCCAA
Target sequence (chain): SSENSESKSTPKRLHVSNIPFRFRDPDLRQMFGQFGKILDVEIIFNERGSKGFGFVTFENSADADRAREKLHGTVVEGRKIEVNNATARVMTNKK
Oligonucleotide = CCCCCUCGCUAGCCAUUUGGGGGUGGCAAGGGGGUGUGGUUGUUUCUCGUGGUUGUGUGUGUUUGUUGUUCGGGUUUUUAAAAGGGGAAAUUGAGACUGCAAGUGGGGGA; result = 3.96
Oligonucleotide = GGCUGCUUAGAAACCACGAGACACCACCUCACUUUCCUCUGGCCUCACUGUUUCUGCCAGUCACAUGCUCUUCCUGUAUGAGUGACACUGCCGUGCUUUCCUCCAGUUAU; result = 0.412
Oligonucleotide = GGCUUAAGUGUGCAGCUACCCACAAGCCUAGCCCCGAGGGGUGGGUGGAGCAACAGCUUUAGAGUGACUCAACUCCUAUCACCAGGAGAAACAAUUCUGAAAACUGGUCC; result = 0.317
Oligonucleotide = GGAUGCAACAUGGGGUCCCAAUGCCUGAGGAGAAGACCCCCCCCCAAGGCUGACUCGCUUUCACCAGGGCCACCAGGGCCAUCCAGUGUUGUUUAAUUACAGUCGGAAAG; result = 0.391
Oligonucleotide = UAGCACAAAUCGAACUUAGGAUUUGUUUCUUCUCUUCUGUGUUUCGAUUUUUGAUCAAUUCUUUAAUUUUGGAAGCCUAUAAUACAGUUUUCUAUUCUUGGAGAUAAAAA; result = 0.367
Oligonucleotide = UAGGACUCUGGAGUAUGCAGACUUGGCCAUUCGUCCAUUGUGGCCUGCGGGUCGCACCCCAGGCAUACUGAAAGGCCAUACUCGUGGCUGGCUGCCUGCGGGCCUAAGCC; result = 3.3
Oligonucleotide = AUGGGGCACACGCCCCAAGGGACAUGAUCCUCUCCUUAGUCUUAGCUCAUGGGGCUCUUUAUAAGGAGUUGGGGGGUAGAGGCAGGAAAUGGGAACCGAGCUGAAGCAGA; result = 0.613
Oligonucleotide = UGAAGUGUUUCAAAUGUCUGUCAGUUCUCUUGCACGGUCCUAAUAAAAGUGAAAGCCCUCUGUCACGAAACAACAUGGGUGGUCCAAAGAUCAGGGGCAAGACAACUCAG; result = 0.506
Oligonucleotide = AUGUCGGGCCAGCCAACAGUAACACUUGCCAAGAAGCAUGGCGUAGAAAUUUCUAUGUUCCGAAACAAGAGUAGUGUCCACAUGUGAGCUUUUCACAUUACCUUAUGUAU; result = 3.03
Oligonucleotide = ACUCUGUCUCCUUGGCUGGAGUGUGGUGGCACAGUCUCAGCUCACUGCAACCUCUGCCUCCCAGUUCAAGCAAUUCUUCUGCCUCAGCCUCCCAAGUAGCUGGGAUUACA; result = 0.328
Oligonucleotide = GAAAAUGGUAAUGAAAGGGCAUGCCCAGGCUCUUUAGCAGCCCAGGGAAACAGAGAAGUCUCCCUUAAAGGCAGGGCCUGGGAGGAAUGGUGGCAAAGGUAUAAUGUAUC; result = 1.98
Oligonucleotide = UUUGUUAGAUCAGCAUAUAAUUCAUAUAACUACUUAAGUUUUUAUGAUGUAUCAUCAAUUUUAUUACUUUCUGUCUAUGUUUGCAAAAGUAGUAGAGUUUAAUUCACCAU; result = 0.587

Sample 2
Target: Sal-like protein 4, full length isoform A (SALL4, Homo sapiens, UniProt Q9UJQ4, residues 1-1053)
UniProt Q9UJQ4, sequence (whole entry, looked up): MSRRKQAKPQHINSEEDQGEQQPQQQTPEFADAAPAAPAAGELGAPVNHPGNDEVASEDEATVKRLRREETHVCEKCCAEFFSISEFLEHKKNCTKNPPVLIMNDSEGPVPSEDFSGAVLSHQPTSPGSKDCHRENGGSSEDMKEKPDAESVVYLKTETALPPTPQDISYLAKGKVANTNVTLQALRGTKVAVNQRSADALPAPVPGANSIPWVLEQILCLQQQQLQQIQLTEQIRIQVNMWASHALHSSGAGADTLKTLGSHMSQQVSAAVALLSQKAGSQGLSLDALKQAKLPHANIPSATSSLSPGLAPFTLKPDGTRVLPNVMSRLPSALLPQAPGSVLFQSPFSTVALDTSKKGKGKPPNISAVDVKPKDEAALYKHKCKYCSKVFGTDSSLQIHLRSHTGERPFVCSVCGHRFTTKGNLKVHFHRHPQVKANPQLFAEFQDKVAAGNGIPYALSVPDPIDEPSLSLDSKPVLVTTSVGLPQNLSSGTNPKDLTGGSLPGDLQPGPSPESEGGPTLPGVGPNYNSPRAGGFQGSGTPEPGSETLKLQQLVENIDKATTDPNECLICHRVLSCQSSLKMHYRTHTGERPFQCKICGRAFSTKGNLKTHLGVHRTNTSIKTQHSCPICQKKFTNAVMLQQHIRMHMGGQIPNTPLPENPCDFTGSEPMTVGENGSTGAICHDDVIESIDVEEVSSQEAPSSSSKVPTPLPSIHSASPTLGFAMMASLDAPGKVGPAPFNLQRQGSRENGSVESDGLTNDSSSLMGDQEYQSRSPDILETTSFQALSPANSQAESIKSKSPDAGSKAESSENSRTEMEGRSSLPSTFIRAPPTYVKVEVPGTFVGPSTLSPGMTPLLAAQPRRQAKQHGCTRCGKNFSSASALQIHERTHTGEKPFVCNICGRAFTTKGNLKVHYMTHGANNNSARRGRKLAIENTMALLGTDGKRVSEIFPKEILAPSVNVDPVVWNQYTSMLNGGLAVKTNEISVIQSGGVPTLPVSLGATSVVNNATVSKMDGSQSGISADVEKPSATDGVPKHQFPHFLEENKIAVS
Technique: universal PBM
Form: double-stranded DNA, one strand shown
Medium: in vitro
Tested at: 600 nM
Notes: 8-mer, flanks averaged, mean of replicates
Reading: higher = stronger binding
Endpoint: E-score
Oligonucleotide = ACGACTAC; result = -0.0785
Oligonucleotide = GGTACCGA; result = -0.291
Oligonucleotide = GGGCACAA; result = -0.0726
Oligonucleotide = ATGCCTGG; result = -0.11
Oligonucleotide = GTCTGACA; result = -0.0426
Oligonucleotide = ACTTAGAC; result = 0.132
Oligonucleotide = CCTGTACA; result = 0.103
Oligonucleotide = AGTGAAGC; result = -0.0154
Oligonucleotide = ATTTAGCC; result = 0.0552
Oligonucleotide = TTCGGCAA; result = 0.00215
Oligonucleotide = GGGTAAAC; result = -0.0609
Oligonucleotide = AGGCGGGC; result = -0.279
Oligonucleotide = CCCGTGTC; result = -0.403
Oligonucleotide = GAGAGAGC; result = -0.159
Oligonucleotide = CATCTCCC; result = -0.156
Oligonucleotide = ACATTACC; result = 0.0446
Oligonucleotide = ACAATTGC; result = 0.163
Oligonucleotide = ATCTGCGA; result = -0.104
Oligonucleotide = ACAGTGAT; result = 0.0718
Oligonucleotide = CCGCTCCA; result = -0.218
Oligonucleotide = GCGAATAA; result = 0.189
Oligonucleotide = ACACTACT; result = 0.0709
Oligonucleotide = ATATACGC; result = 0.168
Oligonucleotide = AGACCTGG; result = -0.271
Oligonucleotide = GTCAAATA; result = 0.285

Sample 3
Target: RING finger protein unkempt homolog, zinc fingers 1-6, GST-SBP tag (UNK, Homo sapiens, UniProt Q9C0B0, residues 30-357)
Technique: RNA Bind-n-Seq
Form: RNA
Medium: in vitro
Tested at: not given
Notes: RNA with constant flanks, ends assumed
Relative to: input RNA pool
Reading: higher = stronger binding
Endpoint: bound/input enrichment
Constant ends, left off below: GGGAGUUCUACAGUCCGACGAUC … CAACAGAGGAUUGAGCAUCA
Residues (chain): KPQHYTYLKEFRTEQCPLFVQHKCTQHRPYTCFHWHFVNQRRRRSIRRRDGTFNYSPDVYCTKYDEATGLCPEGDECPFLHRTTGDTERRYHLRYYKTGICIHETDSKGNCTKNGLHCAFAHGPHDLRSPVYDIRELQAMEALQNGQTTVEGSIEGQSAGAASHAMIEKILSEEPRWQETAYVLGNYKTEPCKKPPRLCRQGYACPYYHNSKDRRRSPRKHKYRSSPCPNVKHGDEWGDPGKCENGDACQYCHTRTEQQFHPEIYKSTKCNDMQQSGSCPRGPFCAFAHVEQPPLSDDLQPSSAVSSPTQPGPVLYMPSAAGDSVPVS
Oligonucleotide = GCCACAAAAUAUUUAAUGUGUUGUGCCUUCAUGAUGUAACAGAACAUUCUCCAGGCCGGGCCGUUGGGGGAAAUAAAGGGAUAAAUCUCUAAUUAUUGCUGUUUAACUGUUUGUUAUCAU; result = 0.423 ratio
Oligonucleotide = UCAGCGAGGACCUCUGCAAGCCAAAAAAUGUCGUCCCAGCAAUAUCAGCAGCAACGCCGAAAAUUUGCAGCUGCCUUCCUGGCAUUGAUUUUCAUCUUGGCAGCUGUGGACACUGCUGAG; result = 0.0782 ratio
Oligonucleotide = AUUAGUGUUAUUUAUGGCUAGAAAAGCAUGCUUCUAUUUAAGCUGUAAAAAGGAUUGUCGAACCGUUACUGUAAAUAUAUGUUGACAUAGUAAAGCUUGGAAUGUCUUAUGUCCCUGGUG; result = 1.21 ratio
Oligonucleotide = UACGGCAAAGGCAAGAGUAACAGCAGCGCCGUCCCGUCCGACAGCCAGGCCCGGGAGAAGUCCGCACUCUACGUGUAUGAAUAUCUGCUCCAUGUAGGAGCUCAGAAAUCGGCUCAGACA; result = 0.051 ratio
Oligonucleotide = UUAAUAGGCUUAAUAAUUGUUGGCAAGGAUCCUUUUGCUUUCUUUGGCAUGCAAGCUCCCCGCAUCUGGCAGUGGGGCCAAGAAAAUAAGGUUUAUGCAUGUAUGAUGGUUUUCUUCUUG; result = 0.448 ratio
Oligonucleotide = CUUCUCUAACUUUUUCAGUUCACAAUUUACUUGGUCCAGAUUUUCUAUUCUUUUUUUUUAACCCGUAAAUGAAAUUUACAUACUUCAUAAAAUUAUGAACAGAUAGCGCAUUGGGCUCUG; result = 0.722 ratio
Oligonucleotide = GUAGAUGGAACUUUUCUAGUGUGGCAUGUAAAGUAUUUGGAUGAAUAUAACCCUGGAAUAUUCCGACAAGUUCAGGUUUCUUUUUCCUCUCGGAUUCCUGUUGCAUUUCCCUCUGGGGAC; result = 0.572 ratio
Oligonucleotide = AAUCAGUCAAAAACGACACCUUUUAAAGAUUGCAAAGUAUUGAAACAAAGACCAAGAUUUGCCGCUCUGAAGAAACAACCAUCCUAUAUUGGAGGACAUGAGGGCUUAGAACUGAGAGAC; result = 0.646 ratio
Oligonucleotide = GAGAUACCAGGACAGAGUCAUUGCUACAUAUGUUUGACCUGAUCUAGCCUUUUCCAAAUGAACCGCCUCAACUCUGUUGUAAAGAAAGUUUUAUUUGUAUUUUACUACUAUUGGGUCAAU; result = 0.941 ratio
Oligonucleotide = CGACAUGUCCUCACCUACAUGGAGGAUGCAGUGUGCCAGCUGCUAGAAAACAGGGAAGAUAUCCGCCAAUAUGGAAUUGCCAGGUUCUUCACUGAAUAUUUUAACAGUGUAUGCCAGGGA; result = 0.112 ratio
Oligonucleotide = UACAUCACCAAUGUUCUACAAAAUCCUGAUUUGGCUCUGAGAAUGGCUGUACGUAAUAACUCCGCCGGUGCUGAAGAACUCUUUGCCCGGAAAUUUAAUGCUCUUUUUGCCCAGGGAAAU; result = 0.426 ratio

Sample 4
Target: Interferon regulatory factor 7, full length, phosphomimetic (IRF7, Homo sapiens, UniProt Q92985, residues 1-503, S471D/S472D/S475D/S476D/S477D/S483D/S484D/S487D)
Technique: protein-binding microarray
Form: double-stranded DNA, one strand shown
Medium: in vitro
Tested at: 2200 nM top
Notes: 60-bp whole probe
With: salmon DNA 0.4 mg/ml
Relative to: random background probes
Reading: higher = stronger binding
Endpoint: fitted relative affinity
Constant ends, left off below: GCCTAGCAC … GTCTTGATTCGCTTGACGCTGCTG
Residues (chain): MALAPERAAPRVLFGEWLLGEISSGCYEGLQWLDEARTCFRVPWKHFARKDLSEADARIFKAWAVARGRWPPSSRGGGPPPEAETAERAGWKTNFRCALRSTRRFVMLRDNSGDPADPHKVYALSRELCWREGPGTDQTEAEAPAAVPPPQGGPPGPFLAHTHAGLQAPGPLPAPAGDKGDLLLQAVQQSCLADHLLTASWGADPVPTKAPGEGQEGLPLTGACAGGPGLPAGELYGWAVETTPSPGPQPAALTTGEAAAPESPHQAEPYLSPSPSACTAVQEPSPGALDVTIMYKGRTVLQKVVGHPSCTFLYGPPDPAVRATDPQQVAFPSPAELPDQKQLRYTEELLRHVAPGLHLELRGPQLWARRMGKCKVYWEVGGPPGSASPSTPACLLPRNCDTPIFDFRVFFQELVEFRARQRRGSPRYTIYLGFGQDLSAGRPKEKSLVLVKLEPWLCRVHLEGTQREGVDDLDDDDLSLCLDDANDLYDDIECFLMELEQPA
Oligonucleotide = TTACGTTTCGGACTGGGTTAGTGCTAG; result = 4.61 z-score
Oligonucleotide = GACGGACTGGACTATCGGGAGGTGCTA; result = -0.985 z-score
Oligonucleotide = GACGGTATCGACTTTCGGGAGGTGCTA; result = 1.98 z-score
Oligonucleotide = GACGATCTTAGACTGGAGACGTGCTAG; result = -0.109 z-score
Oligonucleotide = GAAGATATCAGTCTCGAGACGTGCTAG; result = -0.105 z-score
Oligonucleotide = TTAGATATCAGTCTGGATTAGTGCTAG; result = -0.225 z-score
Oligonucleotide = GAGGGACTGGGTATCGGGACGTGCTAG; result = -0.573 z-score
Oligonucleotide = TTAGGACTGGACTTTCGGTCAGTGCTA; result = 1.48 z-score
Oligonucleotide = GACGAACTGGGTATCGAGACGTGCTAG; result = -0.115 z-score
Oligonucleotide = AAGACTTTGCTCTGTGCATAGGTGCTA; result = -0.0553 z-score
Oligonucleotide = TCACATGTAAATAATCAGACTGTGCTA; result = -0.00202 z-score
Oligonucleotide = TGAGGTTTTCTAATGTTTTTGTGCTAG; result = 0.552 z-score
Oligonucleotide = GAGGATTCCAGTTTCGAGACGTGCTAG; result = 4.29 z-score
Oligonucleotide = TTAGGACTGGGGAGTGGGTTAGTGCTA; result = -0.636 z-score
Oligonucleotide = GACGGTTCCGGATTCGGGACGTGCTAG; result = 2.01 z-score
Oligonucleotide = GACGAACTGCTACTGCTGACGTGCTAG; result = -0.0548 z-score
Oligonucleotide = TTTTCACTTTCTTTAACATAGTGCTAG; result = 5.51 z-score
Oligonucleotide = TTAGGTATCGAGACTGGGTTAGTGCTA; result = -0.144 z-score
Oligonucleotide = GACGGTTTCGGTTCCGGGTCGTGCTAG; result = 12.2 z-score
Oligonucleotide = TTAGGTATCCTTCTCCTTAAGTGCTAG; result = 1.55 z-score

A few entries again (sample 2):
Oligonucleotide = GCGAATAA; result = 0.189
Oligonucleotide = ACACTACT; result = 0.0709
Oligonucleotide = ATATACGC; result = 0.168
Oligonucleotide = AGACCTGG; result = -0.271
Oligonucleotide = GTCAAATA; result = 0.285
